Measured values of several laboratories.
Compare with care: the assays were run in different laboratories. Several values in a cell are separate wells, animals, samples, runs or records. ± marks the error that the study gave.

SMILES | assay | system | setting | how to read | measurement | result
COCCOc1cnc2ccn([C@H](C)c3nnc4c(F)cc(-c5cnn(C)c5)cn34)c(=O)c2c1 |  | patients, plasma | oral, 200 mg twice daily, day 1, 400 per day |  | Cmax | 2600 ng/mL
O=C(O)c1cc(O)cc(O)c1 |  | human plasma | mean, both sexes |  | plasma concentration | 2570 nM
CCN1/C(=C/C(C)=O)Sc2ccc(F)cc21 |  | cynomolgus monkey | oral, 30 mg/kg, 4 h post-dose |  | QRS duration | 36 ± 1 ms
FC(F)(F)c1ccc(CNc2ccc(Cc3c[nH]c4ncc(Cl)cc34)cn2)cn1 | item: Nausea | patients with advanced solid tumours, all cohorts | oral, 1000 mg/day, any grade |  | treatment-related adverse events | 43%
CC(C)C[C@H](NC(=O)[C@@H](Cc1c[nH]c2ccccc12)NC(=O)[C@H](Cc1ccc(O)cc1)NC(=O)[C@H](CO)NC(=O)[C@H](Cc1c[nH]c2ccccc12)NC(=O)[C@H](Cc1c[nH]cn1)NC(=O)[C@@H]1CCC(=O)N1)C(=O)N[C@@H](CCCNC(=N)N)C(=O)N1CCC[C@H]1C(=O)NCC(N)=O |  | Chinese CPP children, girls | intramuscular, 22.5 mg, 12 months, day 1, month 6 |  | patients, drug-related TEAEs | 16.1%
C[C@@H]1COCCN1c1cc(C2([S@](C)(=N)=O)CC2)nc(-c2cc[nH]c3nccc2-3)n1 |  | Japanese advanced solid tumour patients | oral, 160 mg twice daily, CTCAE grade ≥3 |  | Diarrhea incidence | 0%
O=C(Nc1cnccc1Cl)N1CCN(Cc2ccc3c(c2)OC(F)(F)O3)CC1 | item: Fatigue | human healthy young men | 25 mg, multiple dose |  | adverse event incidence | 0%
Cc1cc(NC2CCN(C(=O)OC3CCN(C(=O)/C=C/CN(C)C)C3)CC2)n2ncc(C(C)C)c2n1 (stereo not shown) | Phase I dose escalation CTCAE v4.0, item: platelet count decreased | patients with advanced solid tumours | dose not given, TIW dosing any grade |  | patients with adverse event | 0%
C[C@@H](N)C1CCN(S(=O)(=O)c2cccc3cnccc23)CC1 |  | healthy volunteers | 75 mg, fasted |  | participants with serious TEAEs | 0%
COc1ccc2[nH]c([S+]([O-])Cc3ncc(C)c(OC)c3C)nc2c1 (stereo not shown) |  | healthy Chinese volunteers, plasma | oral, 20 mg, enteric-coated tablets, CYP2C19 normal metabolizers |  | AUC(0-inf) | 460 ± 337 ng·h/mL
Cn1cc(Nc2nccc(-c3ccc4c(c3)CN(C3COC3)CC[C@H]4NC(=O)c3cn(C(C)(C)C)nn3)n2)cn1 |  | human, whole blood | 300 mg twice daily, day 14 | baseline: pre-dose baseline | NK cell count change | 22.7%
N#C[C@@]1(c2ccc3c(N)ncnn23)O[C@H](CO)[C@@H](O)[C@H]1O | plasma protein binding | dog plasma | 100 µM, time not given |  | recovery | 105%
Cn1c(=O)[nH]c2nc[nH]c2c1=O |  | human, both sexes, plasma |  |  | samples above LOQ | 100%
NC1(C(=O)N[C@@H](CCO)c2ccc(Cl)cc2)CCN(c2nc[nH]c3nccc2-3)CC1 |  | metastatic CRPC patients | 400 mg b.i.d., grade 3 to 4, treatment-related, with: enzalutamide 160 mg daily |  | incidence of weight decreased | 0%
COc1ccc(C2CC(=O)c3c(O)cc(O)cc3O2)cc1O[C@@H]1O[C@H](C(=O)O)[C@@H](O)[C@H](O)[C@H]1O (stereo partly shown) |  | human plasma | mean |  | plasma concentration | 766 nM
Cc1cc(Nc2cc3ncccc3c(N[C@@H]3C[C@H]4CC[C@@H](C3)N4CCC#N)n2)n[nH]1 |  | healthy human subjects | oral, 10 mg, 2 weeks, single ascending dose |  | sneezing incidence | 0%
COc1cc(C(=O)O)ccc1OS(=O)(=O)O |  | human plasma | mean |  | plasma concentration | 463 nM
NC(=O)N1c2ccccc2C=Cc2ccccc21 | item: faeces hard | human male | oral, dose not given, AEs, treatment-related, on drug, CTCAE |  | adverse events incidence | 7%
CN(CCC#N)C1CCN(C(=O)Cn2cc(NC(=O)c3cnn4cccnc34)c(-c3cc(Cl)ccc3OC(F)F)n2)CC1 | gamma scintigraphy | human | inhalation, 1 mg single dose | baseline: emitted dose | oropharyngeal deposition | 9.7%
CCc1cc(C(=O)NC)c2nccc(N3CCc4c(cc(Cn5ccnc5)cc4-c4cn(C)nc4C(F)(F)F)C3=O)c2c1 |  | Sprague Dawley rats | oral, 100 mg/kg once daily, 7 days |  | blood TP | 58.7 ± 2.7 g/L
CC(C)(C(=O)N1CCOc2c(C#N)cncc2C1)C(F)F |  | human, both sexes | oral, 20 mg single dose |  | subjects with fatigue TEAE | 0%
CC(C)(Sc1ccncc1-c1ccc(C#N)c2ccccc12)C(=O)O |  | human, plasma | oral, 15 mg once daily, with: febuxostat 0 mg |  | AUC(0-24) | 318 ng·h/mL
Cc1c2oc3c(C)ccc(C(=O)N[C@@H]4C(=O)N[C@H](C(C)C)C(=O)N5CCC[C@H]5C(=O)N(C)CC(=O)N(C)[C@@H](C(C)C)C(=O)O[C@@H]4C)c3nc-2c(C(=O)N[C@@H]2C(=O)N[C@H](C(C)C)C(=O)N3CCC[C@H]3C(=O)N(C)CC(=O)N(C)[C@@H](C(C)C)C(=O)O[C@@H]2C)c(N)c1=O | LC-MS | children with cancer, plasma | dose not given, 6 h |  | minimum plasma concentration | 1.2 µg/L
CNCCOC12CC3(C)CC(C)(CC(Cn4ncc(-c5ccc(N6CCc7cccc(C(=O)Nc8nc9ccccc9s8)c7C6)nc5C(=O)O)c4C)(C3)C1)C2 |  | beagle dog, male, anaesthetised | intravenous bolus, 0.03 mg/kg, 180 min | baseline: baseline | heart rate change | 1%
CCn1cc(C(=O)O)c(=O)c2cnc(N3CCNCC3)nc21 | starch gel membrane permeability | Gram-negative envelope surrogate | 200 µM, 10 min, pH 7.4 |  | amount permeated | 0.89 nmol
C[C@@H](Nc1cc(F)cc(F)c1)c1cc(C(=O)N(C)C)cc2c(=O)cc(N3CCOCC3)oc12 | item: Fatigue | advanced solid tumour patients | oral, dose not given, dose expansion |  | related serious adverse events | 0%
CN(C)c1cc(NC(=O)CNC(C)(C)C)c(O)c2c1C[C@H]1C[C@H]3[C@H](N(C)C)C(O)=C(C(N)=O)C(=O)[C@@]3(O)C(O)=C1C2=O | starch gel membrane permeability | Gram-negative envelope surrogate | 200 µM, 30 min, pH 7.4 |  | amount permeated | 1.36 nmol
O=C(Nc1nc2cccc(-c3ccc(CN4CCS(=O)(=O)CC4)cc3)n2n1)C1CC1 |  | rheumatoid arthritis patients | oral, 100 mg twice daily, 4 weeks, TEAE regardless of relatedness |  | patients with increased blood amylase | 0%

SMILES | assay | system | setting | how to read | measurement | result
O=C(N[C@H](Cc1c[nH]c2ccccc12)C(=O)Nc1ccncc1)c1ccc(-c2ccc(F)c(C(F)(F)F)c2)cc1F |  | Swiss Webster mouse, female, heart | oral, 50 mg/kg, 2 h, 20% HPβCD vehicle |  | concentration | 4190 nM
CCCCOC(=O)N1CCN(C(=O)[C@H](CP(=O)(O)O)NC(=O)c2cc(N3CC[C@H](OC)C3)nc(-c3ccccc3)n2)CC1 |  | human | subcutaneous, 16 mg, 1 h post-dose | baseline: baseline | change in heart rate | -4.4 ± 5.7 beats/min
Cc1ccc(C(=O)N(CCCN)C(c2nc3snc(C)c3c(=O)n2Cc2ccccc2)C(C)C)cc1 (stereo not shown) |  | human patients | intravenous, 13 mg/day |  | grade ≥3 hypokalemia patients | 33%
Cc1ccc([C@@H]2O[C@H](CO)[C@@H](O)[C@H](O)[C@H]2O)cc1Cc1ccc(-c2ccc(F)cc2)s1 | item: inorganic phosphorus | Japanese type 2 diabetes patients | 200 mg, day 2, 24 h urine collection | baseline: baseline | urinary phosphate excretion change | 109 mg
O=C1CC[C@H](N2Cc3cc(N4CCN(CC5CCN(c6ccc([C@@H]7c8ccc(O)cc8CC[C@@H]7c7ccccc7)cc6)CC5)CC4)ccc3C2=O)C(=O)N1 | radiolabelled mass balance | Sprague-Dawley rat, female, feces | oral, 20 mg/kg, 0 to 168 h |  | dose excreted | 91.5%
CNC(=O)c1ccc(-c2cnc3ncc(Cc4ccc5ncccc5c4)n3n2)cc1F | item: Ascites | other cancer patients | oral, 600 mg twice daily, expansion cohort, grade 3-4 |  | patients with adverse event | 0%
CC[C@H]1OC(=O)[C@H](C)[C@@H](O[C@H]2C[C@@](C)(OC)[C@@H](O)[C@H](C)O2)[C@H](C)[C@@H](O[C@@H]2O[C@H](C)C[C@H](N(C)C)[C@H]2O)[C@](C)(O)C[C@@H](C)C(=O)[C@H](C)[C@@H](O)[C@]1(C)O | starch gel membrane permeability | Gram-negative envelope surrogate | 200 µM, 20 min, pH 7.4 |  | amount permeated | 0.16 nmol
O=C1NCCc2nc(OCc3cccc(F)c3)ccc21 | modified Irwin test | Sprague-Dawley rat, male | oral, 100 mg/kg, 4 h | higher = stronger effect | pinna reflex loss score | 0.6
COc1ncc(-c2nc3c(n2C(C)C)[C@H](c2ccc(Cl)cc2)N(c2cc(Cl)cn(C)c2=O)C3=O)c(OC)n1 | LC-MS/MS | human, plasma | oral, 7.5 mg, cycle 1 day 8, low-dose arm |  | AUC(0-last) | 306 ng·h/mL
COc1ccc2c3c([nH]c2c1)[C@H](CC(C)C)N1C(=O)[C@H](CC(=O)NC(C)C)NC(=O)[C@@H]1C3 |  | wild-type mouse, male, serum | oral, 100 mg/kg, 1 h |  | serum concentration | 44100 nM and 28100 nM and 39600 nM
NC[C@@]1(CC(=O)O)[C@@H]2CC[C@H]3C[C@@H]2[C@@H]1C3 |  | human, moderate renal impairment, plasma | geometric mean |  | unbound apparent clearance | 5.7 L/h
C[C@H]1Oc2cc(cnc2N)-c2c(nn(C)c2C#N)CN(C)C(=O)c2ccc(F)cc21 | population PK | moderate renal impairment patients, plasma | oral, 100 mg, single dose |  | CL | 120 mL/min
Cc1cn([C@H]2C[C@H](N=[N+]=[N-])[C@@H](CO)O2)c(=O)[nH]c1=O |  | human, both sexes, PBMCs | oral, 600 mg, single dose |  | MRT(0-inf) | 14.9 ± 32.4 h
O=C(O)c1ccc(O)c(OS(=O)(=O)O)c1 |  | human plasma | mean |  | plasma concentration | 77.2 nM
N#Cc1ccc2c(c1)[C@H]1CCCN(C(=O)c3ccc4[nH]cnc4c3)[C@H]1C2 |  | human | 20 mg, day 7 | baseline: baseline | ACTH level change | 4.3 pmol/L
COc1ccc(CCC(=O)O)cc1O[C@@H]1O[C@H](C(=O)O)[C@@H](O)[C@H](O)[C@H]1O |  | human plasma | mean |  | plasma concentration | 576 nM
Cl.[2H]C([2H])([2H])CC(=O)c1cnc(NC(=O)C2CC2)cc1Nc1cccc(-c2ncn(C([2H])([2H])[2H])n2)c1OC | geometric mean | human | oral, 10 mg single dose, fasted, liquid |  | half-life | 9.26 h
CN[C@H](CC(C)C)C(=O)N[C@H]1C(=O)N[C@@H](CC(N)=O)C(=O)N[C@H]2C(=O)N[C@H]3C(=O)N[C@H](C(=O)N[C@H](C(=O)O)c4cc(O)cc(O)c4-c4cc3ccc4O)[C@H](O)c3ccc(c(Cl)c3)Oc3cc2cc(c3O[C@@H]2O[C@H](CO)[C@@H](O)[C@H](O)[C@H]2O[C@H]2C[C@](C)(N)[C@H](O)[C@H](C)O2)Oc2ccc(cc2Cl)[C@H]1O | starch gel membrane permeability | Gram-negative envelope surrogate | 200 µM, 30 min, pH 7.4 |  | amount permeated | 0.5 nmol
CN(C(=O)n1cnc(-c2cccnc2)c1)[C@H]1CC[C@H](O)CC1 |  | rat, cerebellum | oral, 10 mg/kg daily for 5 days, 72 h |  | tissue concentration | 13.1 ± 1 ng/g
O=C(O)CCC(=O)O.[2H]C([2H])([2H])Oc1cc(C)c2[nH]ccc2c1CN1CC[C@@H](C2CC2)C[C@H]1c1ccc(C(=O)O)cc1 |  | healthy Chinese subjects | 400 mg, single ascending dose |  | TEAE decreased white cells | 0%
CCn1cc(C(=O)N2CCOCC2)c(=O)c2cc(NC3Cc4ccccc4C3)cnc21 |  | human, fed | oral suspension, 600 mg single dose, arithmetic mean |  | AUC(0-last) | 22400 ng·h/mL
CCCCOc1nc(N)c2c(n1)N(Cc1cccc(CN3CCCC3)c1)CC(=O)N2 | item: Nausea | human | oral, 2 mg |  | drug-related TEAE incidence | 0%
Cn1c(=O)c2[nH]cnc2n(C)c1=O |  | human, both sexes, cerebrospinal fluid |  |  | samples above LOQ | 43.3%
O=C(COc1ccc(Cl)cc1)NC12CC(c3nnc([C@H]4C[C@@H](OC(F)(F)F)C4)o3)(C1)C2 |  | human both sexes | oral, 200 mg once daily, 14 days |  | participants with procedural pain | 14.3%
Cc1ccc(Sc2ccccc2N2CCNCC2)c(C)c1 | item: Thirst | healthy adult men | oral, 2.5 mg single dose |  | participants with TEAE | 0%
C[C@@H](O)[C@H]1C(=O)N2C(C(=O)O)=C(SCCN=CN)C[C@H]12 | starch gel membrane permeability | Gram-negative envelope surrogate | 200 µM, 10 min, pH 7.4 |  | amount permeated | 0.87 nmol
CCOC(=O)c1cc(O)c(O)c(O)c1 |  | human plasma | median |  | plasma concentration | 4.4 nM

Repeated from above:
SMILES | assay | system | setting | how to read | measurement | result
CCc1cc(C(=O)NC)c2nccc(N3CCc4c(cc(Cn5ccnc5)cc4-c4cn(C)nc4C(F)(F)F)C3=O)c2c1 |  | Sprague Dawley rats | oral, 100 mg/kg once daily, 7 days |  | blood TP | 58.7 ± 2.7 g/L
CC(C)(C(=O)N1CCOc2c(C#N)cncc2C1)C(F)F |  | human, both sexes | oral, 20 mg single dose |  | subjects with fatigue TEAE | 0%
CC(C)(Sc1ccncc1-c1ccc(C#N)c2ccccc12)C(=O)O |  | human, plasma | oral, 15 mg once daily, with: febuxostat 0 mg |  | AUC(0-24) | 318 ng·h/mL
